Experimental data from different studies.
Lines come from different studies, so protocols differ. Values joined by “and” are separate records of one study, mostly repeats; a detail may differ. ± marks the error that the study gave.
Aryl hydrocarbon receptor: Aryl hydrocarbon receptor (Danio rerio, UniProt Q9YGV3)
Sequence of UniProt O76090 (whole entry, unmodified, looked up): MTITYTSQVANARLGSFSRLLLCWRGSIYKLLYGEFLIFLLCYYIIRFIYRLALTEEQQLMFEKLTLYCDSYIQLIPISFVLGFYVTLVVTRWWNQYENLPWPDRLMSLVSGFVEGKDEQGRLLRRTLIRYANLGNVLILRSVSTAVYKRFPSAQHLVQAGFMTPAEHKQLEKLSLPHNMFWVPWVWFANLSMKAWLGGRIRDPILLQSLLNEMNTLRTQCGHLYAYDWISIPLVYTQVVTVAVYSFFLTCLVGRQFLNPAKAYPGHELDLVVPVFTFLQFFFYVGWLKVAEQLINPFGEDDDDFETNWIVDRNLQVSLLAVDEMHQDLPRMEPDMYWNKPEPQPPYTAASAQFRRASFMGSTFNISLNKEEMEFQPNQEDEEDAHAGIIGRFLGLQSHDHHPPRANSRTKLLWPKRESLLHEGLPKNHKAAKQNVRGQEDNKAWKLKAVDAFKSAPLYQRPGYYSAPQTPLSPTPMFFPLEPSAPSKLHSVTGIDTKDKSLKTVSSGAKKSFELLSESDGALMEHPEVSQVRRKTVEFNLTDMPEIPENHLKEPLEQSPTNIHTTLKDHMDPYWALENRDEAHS
Sequence of UniProt O15305 (whole entry, looked up): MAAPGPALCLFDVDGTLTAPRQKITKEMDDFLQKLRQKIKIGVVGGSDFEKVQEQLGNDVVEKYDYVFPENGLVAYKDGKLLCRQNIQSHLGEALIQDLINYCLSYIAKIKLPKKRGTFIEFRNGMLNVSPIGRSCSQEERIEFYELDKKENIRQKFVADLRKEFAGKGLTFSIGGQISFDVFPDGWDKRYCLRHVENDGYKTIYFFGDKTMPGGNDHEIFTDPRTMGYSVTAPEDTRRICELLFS
Sequence of UniProt P27487 (whole entry, looked up): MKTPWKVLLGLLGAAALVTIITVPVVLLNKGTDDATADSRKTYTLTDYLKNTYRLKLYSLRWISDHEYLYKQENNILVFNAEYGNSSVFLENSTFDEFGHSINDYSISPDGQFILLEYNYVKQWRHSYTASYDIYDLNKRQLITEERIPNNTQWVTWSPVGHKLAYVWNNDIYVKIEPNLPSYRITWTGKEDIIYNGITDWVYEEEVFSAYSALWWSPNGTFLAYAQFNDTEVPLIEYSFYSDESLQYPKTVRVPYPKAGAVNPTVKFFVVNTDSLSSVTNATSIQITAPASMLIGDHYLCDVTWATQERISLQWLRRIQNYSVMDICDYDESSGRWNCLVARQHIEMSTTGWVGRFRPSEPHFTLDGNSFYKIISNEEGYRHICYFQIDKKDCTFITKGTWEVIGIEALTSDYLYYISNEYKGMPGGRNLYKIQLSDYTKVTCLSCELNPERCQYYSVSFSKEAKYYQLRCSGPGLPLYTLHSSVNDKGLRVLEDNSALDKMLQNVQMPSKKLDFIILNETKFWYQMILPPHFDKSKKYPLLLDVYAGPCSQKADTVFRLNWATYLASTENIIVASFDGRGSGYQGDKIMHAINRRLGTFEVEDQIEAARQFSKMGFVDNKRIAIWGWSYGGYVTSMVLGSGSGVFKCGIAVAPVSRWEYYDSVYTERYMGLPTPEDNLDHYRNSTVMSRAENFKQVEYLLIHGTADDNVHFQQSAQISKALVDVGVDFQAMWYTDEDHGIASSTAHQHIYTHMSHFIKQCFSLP
Sequence of UniProt P00519 (whole entry, unmodified, looked up): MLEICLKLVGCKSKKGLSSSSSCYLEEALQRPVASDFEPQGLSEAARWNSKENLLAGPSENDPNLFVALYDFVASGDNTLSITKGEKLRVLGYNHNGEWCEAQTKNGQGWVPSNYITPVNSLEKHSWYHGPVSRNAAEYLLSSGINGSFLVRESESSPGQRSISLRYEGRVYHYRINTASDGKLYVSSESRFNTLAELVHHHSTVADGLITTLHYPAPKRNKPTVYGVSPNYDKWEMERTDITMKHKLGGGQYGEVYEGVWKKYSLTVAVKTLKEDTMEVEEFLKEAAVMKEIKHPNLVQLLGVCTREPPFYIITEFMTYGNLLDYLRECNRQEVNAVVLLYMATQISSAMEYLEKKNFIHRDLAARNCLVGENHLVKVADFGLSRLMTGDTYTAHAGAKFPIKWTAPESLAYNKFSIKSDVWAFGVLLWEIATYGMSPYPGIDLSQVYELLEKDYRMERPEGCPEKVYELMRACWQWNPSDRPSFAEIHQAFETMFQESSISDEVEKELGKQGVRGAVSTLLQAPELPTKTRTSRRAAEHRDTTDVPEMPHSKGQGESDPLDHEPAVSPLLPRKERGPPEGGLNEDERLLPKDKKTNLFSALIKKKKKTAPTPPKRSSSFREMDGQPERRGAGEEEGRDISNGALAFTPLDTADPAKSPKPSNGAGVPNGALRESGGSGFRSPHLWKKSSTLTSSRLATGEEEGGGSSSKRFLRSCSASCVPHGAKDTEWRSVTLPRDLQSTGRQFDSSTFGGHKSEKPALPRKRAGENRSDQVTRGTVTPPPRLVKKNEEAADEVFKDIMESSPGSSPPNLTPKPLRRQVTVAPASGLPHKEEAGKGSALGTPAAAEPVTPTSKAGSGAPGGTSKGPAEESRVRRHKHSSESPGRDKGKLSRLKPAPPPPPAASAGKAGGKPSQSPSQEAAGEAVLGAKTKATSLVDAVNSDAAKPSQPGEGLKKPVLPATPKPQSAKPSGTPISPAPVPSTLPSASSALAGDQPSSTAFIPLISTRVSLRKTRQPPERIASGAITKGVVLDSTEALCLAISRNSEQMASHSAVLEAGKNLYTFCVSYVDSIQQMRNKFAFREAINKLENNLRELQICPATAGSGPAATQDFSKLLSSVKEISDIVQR
Sequence of UniProt P25963 (whole entry, unmodified, looked up): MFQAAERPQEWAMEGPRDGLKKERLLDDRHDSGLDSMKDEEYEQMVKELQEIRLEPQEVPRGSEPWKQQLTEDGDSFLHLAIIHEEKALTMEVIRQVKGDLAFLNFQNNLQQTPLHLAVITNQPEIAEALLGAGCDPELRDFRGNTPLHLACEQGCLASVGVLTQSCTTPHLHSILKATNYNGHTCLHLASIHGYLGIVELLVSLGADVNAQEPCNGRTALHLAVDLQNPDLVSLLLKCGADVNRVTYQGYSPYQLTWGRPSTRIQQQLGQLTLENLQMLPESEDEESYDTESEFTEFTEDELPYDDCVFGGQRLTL
Sequence of UniProt P18508 (whole entry, looked up): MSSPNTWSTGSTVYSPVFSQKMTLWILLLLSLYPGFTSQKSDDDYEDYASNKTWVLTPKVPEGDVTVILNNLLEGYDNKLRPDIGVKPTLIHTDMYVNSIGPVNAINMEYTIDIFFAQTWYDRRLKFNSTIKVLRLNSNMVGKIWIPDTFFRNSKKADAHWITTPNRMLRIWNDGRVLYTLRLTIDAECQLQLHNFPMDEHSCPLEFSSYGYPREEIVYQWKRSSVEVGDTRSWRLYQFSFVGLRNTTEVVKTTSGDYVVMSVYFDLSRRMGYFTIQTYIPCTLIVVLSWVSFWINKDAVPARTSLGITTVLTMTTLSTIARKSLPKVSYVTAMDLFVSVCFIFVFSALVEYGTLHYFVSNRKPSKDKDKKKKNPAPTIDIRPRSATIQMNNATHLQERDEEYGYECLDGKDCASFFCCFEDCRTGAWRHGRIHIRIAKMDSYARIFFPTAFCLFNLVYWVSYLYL
Sequence of UniProt P62813 (whole entry, looked up): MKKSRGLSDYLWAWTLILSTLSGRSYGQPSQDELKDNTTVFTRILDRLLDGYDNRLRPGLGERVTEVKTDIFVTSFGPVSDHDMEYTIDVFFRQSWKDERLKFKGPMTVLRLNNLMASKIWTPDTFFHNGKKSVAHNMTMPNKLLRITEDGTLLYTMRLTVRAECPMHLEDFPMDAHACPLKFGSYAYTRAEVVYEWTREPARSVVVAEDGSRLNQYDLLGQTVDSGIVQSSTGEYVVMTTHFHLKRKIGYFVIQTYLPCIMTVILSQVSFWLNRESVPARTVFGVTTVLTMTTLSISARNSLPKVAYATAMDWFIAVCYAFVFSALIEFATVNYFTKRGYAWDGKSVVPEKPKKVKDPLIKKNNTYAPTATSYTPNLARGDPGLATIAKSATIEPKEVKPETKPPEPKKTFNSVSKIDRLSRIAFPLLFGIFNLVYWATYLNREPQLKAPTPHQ
Sequence of UniProt P35869 (whole entry, looked up): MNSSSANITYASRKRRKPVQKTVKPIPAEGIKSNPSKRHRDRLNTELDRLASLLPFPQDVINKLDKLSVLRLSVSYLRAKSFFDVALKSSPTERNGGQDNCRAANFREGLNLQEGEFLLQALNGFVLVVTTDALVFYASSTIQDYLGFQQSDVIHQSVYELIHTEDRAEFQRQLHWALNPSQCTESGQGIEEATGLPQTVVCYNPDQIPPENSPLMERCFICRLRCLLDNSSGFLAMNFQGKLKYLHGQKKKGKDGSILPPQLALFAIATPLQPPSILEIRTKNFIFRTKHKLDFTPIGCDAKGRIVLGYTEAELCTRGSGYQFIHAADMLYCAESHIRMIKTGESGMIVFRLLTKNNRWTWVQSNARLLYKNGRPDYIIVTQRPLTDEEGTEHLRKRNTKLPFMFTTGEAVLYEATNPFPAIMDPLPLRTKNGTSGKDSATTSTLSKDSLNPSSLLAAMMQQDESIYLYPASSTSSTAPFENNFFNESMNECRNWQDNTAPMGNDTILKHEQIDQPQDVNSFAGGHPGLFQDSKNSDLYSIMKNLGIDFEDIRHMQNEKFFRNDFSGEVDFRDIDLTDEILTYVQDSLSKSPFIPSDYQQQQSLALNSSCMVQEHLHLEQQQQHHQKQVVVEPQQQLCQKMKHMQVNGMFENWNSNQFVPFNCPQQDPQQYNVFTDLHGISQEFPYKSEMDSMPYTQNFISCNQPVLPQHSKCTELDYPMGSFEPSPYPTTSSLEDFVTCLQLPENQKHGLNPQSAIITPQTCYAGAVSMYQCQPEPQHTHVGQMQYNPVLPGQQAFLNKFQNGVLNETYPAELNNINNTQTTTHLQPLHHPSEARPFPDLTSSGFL

SMILES	target	test	system	conditions	scale	endpoint	result
CN(C)c1nccc(-c2cnc3ncccn23)n1	ABL1 (Homo sapiens, UniProt P00519, F317I)	KINOMEscan		1 µM		remaining binding	42% and 69%
O=C(COP(=O)(O)O)[C@@H](O)[C@H](O)[C@H](O)COP(=O)(O)O	PMM2 (Homo sapiens, UniProt O15305)			0.005 mM, unit not given	baseline: activity at 0 mM set to 100	enzyme activity	91.2 and 98.8 and 98.6
Nc1ccc(C(=O)O)cc1	BEST1, with wild-type BEST1 (Homo sapiens, UniProt O76090, L234P)	ion current, whole-cell patch clamp	HEK293 co-expressing mutant and wild-type	concentration not given, voltage 20 mV		current density	3.97 pA/pF and 10.8 pA/pF and 1.69 pA/pF and 3.19 pA/pF and 5.61 pA/pF and 2.73 pA/pF
CN(C)C/C=C/C(=O)Nc1ccc(C(=O)Nc2cccc(Nc3ncc(Cl)c(-c4c[nH]c5ccccc45)n3)c2)cc1	Cyclin-dependent kinase 7, with cyclin H, MAT1 (CDK7, Homo sapiens, UniProt P50613)	kinase activity, Kinase-Glo		concentration not given		normalized luminescence	1.08
Cn1c2c(Cl)c(Cl)ccc2c2cc(N)[nH]c(=O)c21	Serine/threonine-protein kinase VRK3 (VRK3, Homo sapiens, UniProt Q8IV63)	thermal stability, thermal shift		10 µM	higher = stronger binding	delta Tm	0.1 °C
c1ccc2c(c1)-c1cccc3c1c-2cc1ccccc13	Aryl hydrocarbon receptor	reporter gene, agonist, luciferase reporter	ZF-4	13.72 µM	baseline: vehicle control	fold change	4.28
O=S(=O)(O)C1CCNCC1	GABA-A receptor; alpha-1/beta-2/gamma-2 (Rattus norvegicus, UniProt P18508+P62813+P63138)	membrane potential, agonist, QP-DHM fluorescence	HEK293 expressing GABAA		baseline: GABA	maximal response	94%
CCCCCCCCCCCCC/C=C/[C@@H](O)[C@H](CO)NC(=O)CCCCCCCCCCCCCCC	Protein SET (SET, Homo sapiens, UniProt Q01105, Y135C)	lipid binding, GFP pull-down LC-MS/MS	A549 overexpressing GFP-tagged protein	unit not given	baseline: vector-transfected cells	bound endogenous lipid	0.4
CC[C@H](C)[C@H](NC(=O)[C@H](CCCNC(=N)N)NC(=O)[C@H](Cc1c[nH]cn1)NC(=O)[C@H](CCCNC(=N)N)NC(=O)[C@H](CC(=O)O)NC(=O)[C@H](CC(=O)O)NC(=O)[C@@H](NC(=O)[C@H](CC(=O)O)NC(=O)[C@@H]1CCCN1C(=O)[C@@H](N)CC(C)C)[C@@H](C)O)C(=O)N[C@@H](CCC(=O)O)C(=O)N[C@@H](CCC(=O)O)C(=O)N[C@@H](CCCCN)C(=O)N[C@@H](CCCNC(=N)N)C(=O)N[C@@H](CCCCN)C(=O)N[C@@H](CCCNC(=N)N)C(=O)N[C@H](C(=O)N[C@@H](Cc1ccc(O)cc1)C(=O)N[C@@H](CCC(=O)O)C(=O)N[C@H](C(=O)N[C@@H](Cc1ccccc1)C(=O)N[C@@H](CCCCN)C(=O)N[C@@H](CO)C(=O)N[C@H](C(=O)N[C@@H](CCSC)C(=O)N[C@@H](CCCCN)C(=O)N[C@@H](CCCCN)C(=O)N[C@@H](CO)C(=O)N1CCC[C@H]1C(=O)N[C@@H](Cc1ccccc1)C(=O)N[C@@H](CC(N)=O)C(=O)NCC(=O)N1CCC[C@H]1C(=O)O)[C@@H](C)CC)[C@@H](C)O)[C@@H](C)O	NF-kappa-B inhibitor alpha (Homo sapiens, UniProt P25963)	binding, ITC		293 K, 150 mM NaCl		ΔH	-3.6 ± 0.4 kcal/mol
O=C(O)c1ccc(Nc2ncc3c(n2)-c2ccc(Cl)cc2C(c2c(F)cccc2F)=NC3)cc1	human cKit(h)	kinase activity		1 µM		remaining activity	91%
CC[C@@H]1[C@H](F)C(=O)N[C@@H]1COc1nccc2cc(C(N)=O)c(OC)cc12	TLK1 (Homo sapiens, UniProt Q9UKI8)	ATP-site probe binding, ActivX profiling	THP-1 cell lysate	0.04 mM, Lys2 site		inhibition	-7.3%
O=C(CCCc1ccccc1)C(=O)NCCc1ccc(Oc2ccc(C(F)(F)F)cn2)cc1	DPP4 (Homo sapiens, UniProt P27487)	inhibitor, FP-biotin chemoproteomics	HepG2	concentration not given	baseline: DMSO, lower = stronger inhibition	probe-enriched protein abundance	29000 a.u. and 29200 a.u. and 27200 a.u.
O=c1nc(SCc2cc(F)cc(C(F)(F)F)c2)nc(SCc2ccc3nc(Cl)ccc3c2)[nH]1	TOP2A (Homo sapiens, UniProt P11388)	DNA relaxation		7.8 µM, replicate 2		relaxed DNA	99.6%
Nc1ccc2ccc3cccc4ccc1c2c34	Aryl hydrocarbon receptor	reporter gene, agonist, luciferase reporter	ZF-4	41.15 µM	baseline: vehicle control	fold change	1.43
Cc1ccc2c(ccc3ccccc32)c1	AHR (Homo sapiens, UniProt P35869)	reporter gene, agonist, yeast LacZ reporter	Saccharomyces cerevisiae			maximum response	199 LacZ units

Some of these lines once more:
SMILES	target	test	system	conditions	scale	endpoint	result
Cn1c2c(Cl)c(Cl)ccc2c2cc(N)[nH]c(=O)c21	Serine/threonine-protein kinase VRK3 (VRK3, Homo sapiens, UniProt Q8IV63)	thermal stability, thermal shift		10 µM	higher = stronger binding	delta Tm	0.1 °C
